{"data": "Values quoted from earlier work that unrelated publications cite", "note": "Lines come from different studies, so protocols differ. ± marks the error that the study gave.", "UniProt Q9BRS2, sequence (whole entry, looked up)": "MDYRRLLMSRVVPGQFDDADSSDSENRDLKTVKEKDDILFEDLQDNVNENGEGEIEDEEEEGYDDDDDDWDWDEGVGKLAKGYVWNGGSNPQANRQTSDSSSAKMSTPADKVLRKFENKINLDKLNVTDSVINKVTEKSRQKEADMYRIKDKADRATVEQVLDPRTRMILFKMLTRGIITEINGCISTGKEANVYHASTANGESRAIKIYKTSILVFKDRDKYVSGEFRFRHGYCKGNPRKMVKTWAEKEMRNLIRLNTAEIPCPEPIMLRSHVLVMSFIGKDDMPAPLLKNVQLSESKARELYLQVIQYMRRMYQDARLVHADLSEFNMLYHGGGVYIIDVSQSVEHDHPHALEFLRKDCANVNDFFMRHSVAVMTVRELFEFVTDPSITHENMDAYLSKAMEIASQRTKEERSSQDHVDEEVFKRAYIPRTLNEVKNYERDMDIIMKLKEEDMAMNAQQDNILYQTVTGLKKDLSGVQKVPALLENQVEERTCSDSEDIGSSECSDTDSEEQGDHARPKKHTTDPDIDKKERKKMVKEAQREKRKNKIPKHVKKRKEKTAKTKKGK"}
{"Compound": "C=CC(=O)N1CCC([C@@H]2CCNc3c(C(N)=O)c(-c4ccc(Oc5ccccc5)cc4)nn32)CC1", "system": "human patients", "setting": "oral, 80 mg once daily, day 8", "quantity": "AUC(0-8h)", "value": "595 ± 338 ng·h/mL"}
{"Compound": "C#C[C@]1(O)CC[C@H]2[C@@H]3CCc4cc(O)ccc4[C@H]3CC[C@@]21C", "system": "HCl fasted stomach medium", "setting": "0.083 h", "quantity": "cumulative release", "value": "12%"}
{"Compound": "CC(C)(O/N=C(\\C(=O)N[C@@H]1C(=O)N2C(C(=O)[O-])=C(C[n+]3ccccc3)CS[C@H]12)c1csc(N)n1)C(=O)O", "target or system": "Escherichia coli", "system": "clinical isolate RKI-No_592/16", "quantity": "MIC", "value": "≤ 2 µg/mL"}
{"Compound": "CNC(=O)c1c(C)oc2cc(Oc3ncnc4cc(OC)c(OC)cc34)ccc12", "system": "urine", "setting": "5 mg radiolabelled, time not given", "quantity": "dose recovered unchanged", "value": "0.5%"}
{"Compound": "C[C@@H](O)[C@H]1C(=O)N2C(C(=O)O)=C(S[C@@H]3CN[C@H](C(=O)N(C)C)C3)[C@H](C)[C@H]12", "system": "healthy Chinese subjects", "quantity": "t_half", "value": "1.1 h"}
{"Compound": "C[C@H](O)C(=O)C1=Nc2c(nc(N)[nH]c2=O)NC1", "system": "healthy human volunteers, plasma", "setting": "oral, dose not given, LLOQ 0.5 ng/mL", "quantity": "time to below LLOQ", "value": "≤ 8 h"}
{"Compound": "CCO[C@H]1CCN(Cc2c(OC)cc(C)c3[nH]ccc23)[C@H](c2ccc(C(=O)O)cc2)C1", "system": "healthy participants", "setting": "oral, 1200 mg, single dose", "quantity": "tolerability", "value": "not toxic"}
{"Compound": "CC(C)(C(=O)O)c1ccc(C(O)CCCN2CCC(C(O)(c3ccccc3)c3ccccc3)CC2)cc1 (stereo not drawn)", "system": "healthy volunteers", "setting": "dose not given, reduced P-gp activity category", "quantity": "AUC(0-6 h)", "value": "> 218 ng·h/mL"}
{"Compound": "Cn1ncnc1[C@H]1c2n[nH]c(=O)c3cc(F)cc(c23)N[C@@H]1c1ccc(F)cc1", "system": "human moderate renal impairment", "setting": "dose not given", "how to read": "reference: normal renal function", "quantity": "AUC(0-24) increase", "value": "~56.8%"}
{"Compound": "COc1cc2c(Oc3ccc4[nH]c(C)cc4c3F)ccnc2cc1OCC1(N)CC1", "system": "human", "setting": "16 mg single dose", "quantity": "AUC(0-t)", "value": "1290 ± 384 ng·h/mL"}
{"Compound": "CO[C@@H](C)Cn1c(=O)n(C)c2cnc3ccc(-c4cncc(C(C)(C)O)c4)cc3c21", "test": "refers to: grade ≥3 rash", "system": "cancer patients", "setting": "dose not given, monotherapy", "quantity": "patients with related adverse event", "value": "3.1%"}
{"Compound": "CN(C)C(=N)N=C(N)N", "system": "patients with liver failure", "quantity": "rate constant k12", "value": "0.0194 min⁻¹"}
{"Compound": "Cc1cc(-c2nccc3c2ccn3CC(=O)Nc2ccc(-c3cnccn3)cn2)ccn1", "test": "refers to: total drug", "system": "dog", "setting": "50 mg/kg/day, 14-day dose-range finding", "quantity": "Cmax", "value": "1700 nM"}
{"Compound": "C=CCC(CCC)C(=O)O (stereo not drawn)", "test": "craniofacial deformation", "system": "zebrafish embryo", "setting": "nominal concentration", "quantity": "EC10", "value": "7 µM"}
{"Compound": "O=C(c1cccnc1-c1ccncc1)N1CCC(O)(Cc2ccccc2)CC1", "system": "human", "setting": "dose not given, fed vs fasted", "quantity": "overall exposure", "value": "no effect"}
{"Compound": "Nc1cc(C(F)(F)F)c(-c2nc(N3CCOCC3)nc(N3CCOCC3)n2)cn1", "target or system": "RIOK1 (Homo sapiens, UniProt Q9BRS2)", "test": "enzyme activity", "setting": "10 µM", "how to read": "reference: untreated", "quantity": "remaining activity", "value": "97%"}
{"Compound": "Nc1ccn([C@@H]2O[C@H](CO)[C@@H](O)C2(F)F)c(=O)n1", "system": "pancreatic cancer patients", "setting": "dose not given", "quantity": "dose reductions due to Thrombocytopenia", "value": "20%"}
{"Compound": "CC1(C)S[C@@H]2[C@H](NC(=O)[C@H](N)c3ccccc3)C(=O)N2[C@H]1C(=O)O", "target or system": "Enterobacter cloacae", "system": "clinical isolate RKI-No_361/13", "quantity": "MIC", "value": "> 16 µg/mL"}
{"Compound": "CC(=O)c1c(C)c2cnc(Nc3ccc(N4CCNCC4)cn3)nc2n(C2CCCC2)c1=O", "system": "human advanced cancer patients", "setting": "dose not given, monotherapy", "quantity": "grade ≥3 neutropenia incidence", "value": "33%"}
{"Compound": "CN(C)C(=O)c1cc2cnc(Nc3ccc(N4CCNCC4)cn3)nc2n1C1CCCC1", "test": "refers to: nausea", "system": "advanced solid tumour or lymphoma patients", "setting": "dose not given, 3 weeks on 1 week off, any grade", "how to read": "reference: patients", "quantity": "adverse event incidence", "value": "52.2%"}
{"Compound": "Cc1cn([C@@H]2C[C@@H](O)[C@H](CO)O2)c(=O)[nH]c1=O", "system": "woodchuck", "setting": "10 mg/kg", "quantity": "oral bioavailability", "value": "39%"}
{"Compound": "O=C(O)CN1CCN(CC(=O)O)CCN(CC(=O)O)CCN(CC(=O)O)CC1", "test": "pH-potentiometry, refers to: logK3H", "system": "0.15 M NaClO4", "setting": "25 °C", "quantity": "protonation constant (log)", "value": 4.51}
{"Compound": "Nc1ccn([C@@H]2CS[C@H](CO)O2)c(=O)n1", "system": "woodchuck", "setting": "dose not given", "quantity": "oral bioavailability", "value": "53%"}
{"Compound": "CO[C@H]1C[C@@H]2CC[C@@H](C)[C@@](O)(O2)C(=O)C(=O)N2CCCC[C@H]2C(=O)O[C@H]([C@H](C)C[C@@H]2CC[C@@H](OCCO)[C@H](OC)C2)CC(=O)[C@H](C)/C=C(\\C)[C@@H](O)[C@@H](OC)C(=O)[C@H](C)C[C@H](C)/C=C/C=C/C=C/1C", "system": "plasma", "setting": "concentration not given, population PK two-compartment", "quantity": "apparent central volume (V1/F)", "value": "191 L"}
{"note": "Repeated from above:"}
{"Compound": "CC1(C)S[C@@H]2[C@H](NC(=O)[C@H](N)c3ccccc3)C(=O)N2[C@H]1C(=O)O", "target or system": "Enterobacter cloacae", "system": "clinical isolate RKI-No_361/13", "quantity": "MIC", "value": "> 16 µg/mL"}
{"Compound": "CC(=O)c1c(C)c2cnc(Nc3ccc(N4CCNCC4)cn3)nc2n(C2CCCC2)c1=O", "system": "human advanced cancer patients", "setting": "dose not given, monotherapy", "quantity": "grade ≥3 neutropenia incidence", "value": "33%"}
